Results collected from several papers.
Parts stem from different laboratories: compare values within a part only.
Sequence of UniProt Q84WU6 (whole entry, looked up): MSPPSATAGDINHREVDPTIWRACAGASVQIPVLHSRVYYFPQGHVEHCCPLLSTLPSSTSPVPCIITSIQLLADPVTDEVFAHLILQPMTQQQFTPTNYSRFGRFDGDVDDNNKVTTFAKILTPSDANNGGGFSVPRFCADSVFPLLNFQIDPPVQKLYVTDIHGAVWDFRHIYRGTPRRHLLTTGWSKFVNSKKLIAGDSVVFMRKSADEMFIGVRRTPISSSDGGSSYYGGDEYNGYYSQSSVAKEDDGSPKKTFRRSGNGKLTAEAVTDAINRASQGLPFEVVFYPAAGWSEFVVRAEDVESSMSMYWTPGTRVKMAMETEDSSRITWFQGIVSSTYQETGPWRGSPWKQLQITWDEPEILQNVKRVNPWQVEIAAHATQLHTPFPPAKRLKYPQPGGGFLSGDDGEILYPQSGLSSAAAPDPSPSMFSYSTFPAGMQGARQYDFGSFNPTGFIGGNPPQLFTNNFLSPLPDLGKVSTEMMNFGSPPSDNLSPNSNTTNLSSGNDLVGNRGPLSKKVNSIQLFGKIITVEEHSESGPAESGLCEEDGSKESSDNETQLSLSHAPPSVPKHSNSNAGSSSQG
Sequence of UniProt Q9ZSY8 (whole entry, looked up): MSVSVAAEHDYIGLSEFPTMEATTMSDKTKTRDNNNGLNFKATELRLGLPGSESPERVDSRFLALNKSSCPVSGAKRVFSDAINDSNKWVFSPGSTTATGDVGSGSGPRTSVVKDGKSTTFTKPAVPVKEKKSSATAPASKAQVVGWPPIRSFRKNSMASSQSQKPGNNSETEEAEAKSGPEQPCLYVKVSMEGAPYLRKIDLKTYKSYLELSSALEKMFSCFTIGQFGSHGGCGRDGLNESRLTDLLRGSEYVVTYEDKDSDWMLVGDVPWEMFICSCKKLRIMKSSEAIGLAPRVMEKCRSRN
Sequence of UniProt Q94JM3 (whole entry, looked up): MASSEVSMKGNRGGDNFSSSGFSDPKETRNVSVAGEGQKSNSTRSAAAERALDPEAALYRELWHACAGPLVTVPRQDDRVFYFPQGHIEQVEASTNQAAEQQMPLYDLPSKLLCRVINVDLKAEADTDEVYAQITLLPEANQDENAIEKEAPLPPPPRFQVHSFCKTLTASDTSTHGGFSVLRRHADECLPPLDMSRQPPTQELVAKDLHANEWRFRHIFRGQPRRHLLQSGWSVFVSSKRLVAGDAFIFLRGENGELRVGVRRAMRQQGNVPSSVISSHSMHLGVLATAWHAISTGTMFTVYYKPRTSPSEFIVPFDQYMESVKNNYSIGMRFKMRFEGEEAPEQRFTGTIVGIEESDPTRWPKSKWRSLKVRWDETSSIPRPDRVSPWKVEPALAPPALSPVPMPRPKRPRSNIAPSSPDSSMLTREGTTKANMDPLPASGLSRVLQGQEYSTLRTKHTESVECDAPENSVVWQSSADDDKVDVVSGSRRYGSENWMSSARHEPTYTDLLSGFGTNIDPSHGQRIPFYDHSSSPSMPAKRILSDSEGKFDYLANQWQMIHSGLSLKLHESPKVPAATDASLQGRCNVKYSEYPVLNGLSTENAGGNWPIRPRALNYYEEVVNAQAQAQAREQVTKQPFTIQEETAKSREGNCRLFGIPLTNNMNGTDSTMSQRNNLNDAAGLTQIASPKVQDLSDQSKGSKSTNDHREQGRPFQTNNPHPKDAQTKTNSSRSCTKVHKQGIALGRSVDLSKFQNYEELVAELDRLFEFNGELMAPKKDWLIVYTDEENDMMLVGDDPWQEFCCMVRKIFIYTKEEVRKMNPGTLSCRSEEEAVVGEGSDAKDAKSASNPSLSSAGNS
Sequence of UniProt Q8H174 (whole entry, looked up): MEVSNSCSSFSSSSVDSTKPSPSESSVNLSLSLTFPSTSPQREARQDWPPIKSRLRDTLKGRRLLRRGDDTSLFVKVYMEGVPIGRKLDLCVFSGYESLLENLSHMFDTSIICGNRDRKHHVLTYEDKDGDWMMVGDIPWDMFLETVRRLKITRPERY
Sequence of UniProt Q8RYC6 (whole entry, looked up): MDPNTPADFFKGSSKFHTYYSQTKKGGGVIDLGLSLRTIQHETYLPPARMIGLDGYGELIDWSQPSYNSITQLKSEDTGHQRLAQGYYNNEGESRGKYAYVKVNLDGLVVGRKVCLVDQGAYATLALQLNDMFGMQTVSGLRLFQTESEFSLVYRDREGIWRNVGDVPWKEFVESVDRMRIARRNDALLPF
Sequence of UniProt O24410 (whole entry, looked up): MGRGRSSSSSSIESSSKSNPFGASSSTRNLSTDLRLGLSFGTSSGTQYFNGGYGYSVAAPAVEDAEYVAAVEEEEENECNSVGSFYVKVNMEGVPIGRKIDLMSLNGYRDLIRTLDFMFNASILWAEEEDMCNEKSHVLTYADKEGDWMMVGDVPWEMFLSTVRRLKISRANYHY
Sequence of UniProt Q9FGV1 (whole entry, looked up): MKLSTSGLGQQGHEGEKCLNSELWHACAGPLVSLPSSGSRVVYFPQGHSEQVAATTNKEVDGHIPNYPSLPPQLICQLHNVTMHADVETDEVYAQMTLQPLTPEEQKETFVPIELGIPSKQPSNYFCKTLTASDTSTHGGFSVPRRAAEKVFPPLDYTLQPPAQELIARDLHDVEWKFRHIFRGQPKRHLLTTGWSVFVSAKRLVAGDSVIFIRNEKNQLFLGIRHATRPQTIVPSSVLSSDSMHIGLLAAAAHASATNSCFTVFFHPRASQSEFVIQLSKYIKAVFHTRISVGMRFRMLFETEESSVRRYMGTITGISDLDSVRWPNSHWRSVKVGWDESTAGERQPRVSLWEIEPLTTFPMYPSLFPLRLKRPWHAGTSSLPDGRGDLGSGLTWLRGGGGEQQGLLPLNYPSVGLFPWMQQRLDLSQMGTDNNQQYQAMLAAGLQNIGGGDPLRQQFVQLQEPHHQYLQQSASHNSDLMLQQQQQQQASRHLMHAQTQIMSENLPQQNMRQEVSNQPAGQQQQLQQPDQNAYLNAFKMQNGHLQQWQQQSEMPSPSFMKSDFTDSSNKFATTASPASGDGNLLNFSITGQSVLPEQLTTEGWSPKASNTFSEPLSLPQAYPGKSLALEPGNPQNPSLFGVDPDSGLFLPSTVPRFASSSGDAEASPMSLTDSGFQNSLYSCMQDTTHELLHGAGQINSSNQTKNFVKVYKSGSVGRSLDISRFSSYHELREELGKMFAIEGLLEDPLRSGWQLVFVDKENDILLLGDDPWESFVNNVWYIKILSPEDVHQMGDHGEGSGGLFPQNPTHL
Sequence of UniProt Q9LQE8 (whole entry, looked up): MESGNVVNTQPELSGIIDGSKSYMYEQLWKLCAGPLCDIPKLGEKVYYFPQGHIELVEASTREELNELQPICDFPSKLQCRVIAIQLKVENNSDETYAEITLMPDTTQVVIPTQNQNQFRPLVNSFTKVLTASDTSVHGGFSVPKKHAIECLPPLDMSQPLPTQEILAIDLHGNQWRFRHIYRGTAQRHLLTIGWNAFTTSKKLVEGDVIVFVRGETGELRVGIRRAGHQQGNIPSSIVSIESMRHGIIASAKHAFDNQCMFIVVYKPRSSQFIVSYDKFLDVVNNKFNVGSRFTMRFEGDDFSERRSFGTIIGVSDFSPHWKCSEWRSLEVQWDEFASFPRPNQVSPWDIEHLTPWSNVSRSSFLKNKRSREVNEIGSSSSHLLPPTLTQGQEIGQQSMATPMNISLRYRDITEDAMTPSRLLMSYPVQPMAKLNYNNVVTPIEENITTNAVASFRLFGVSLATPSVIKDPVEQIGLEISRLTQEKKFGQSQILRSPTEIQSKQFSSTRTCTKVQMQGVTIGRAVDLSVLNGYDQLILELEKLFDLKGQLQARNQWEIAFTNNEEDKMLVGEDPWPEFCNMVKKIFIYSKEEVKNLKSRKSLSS

Series 1 — method: RNA Bind-n-Seq; molecule type: RNA; sample: in vitro; concentration: 365 nM; relative to: no-protein control; direction: higher = stronger binding
Target: RNA binding protein fox-1 homolog 2, RRM domain, GST-SBP tag (RBFOX2, Homo sapiens, UniProt O43251-10, residues 100-194)
Notes: natural RNA segment, single round, ends assumed
Constant ends, left off below: GGGAGUUCUACAGUCCGACGAUC … UGGAAUUCUCGGGUGCCAA
Construct (chain): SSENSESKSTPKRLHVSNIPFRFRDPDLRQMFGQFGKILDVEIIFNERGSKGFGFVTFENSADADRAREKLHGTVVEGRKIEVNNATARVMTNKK
Sequence	RBNS enrichment (R)
GCUGAGGAAUUCUUGUACGCAGUUUCUUUGGCUUCACGAAGCCGAUUAAAAGACCGUGUGAAAUGAAUCUCGCUCUGACCAUUUCCCUUUCAUUGCCGACACUGAGCUGC	0.369
AUAGCUCUCUGCCCUGAUGUGUGGGGGAACUAGGAAGAAGUCCUUUGACCUCACCAGGCCUCAUGCUUCCCUUUAAUGUAAAGGGAAGGGGUUUGCCCACUUUCCUCUUU	0.847
CUGGGUUCCGCCCGGUCUCCACCCUCCCUCCGCCUCCCUUGGUUAGUUUCACAGUGCUGGCAAUGAAGCCCGUGGCCCACCACGCUAGGCGAGUGCUCUGCCACUGAGUC	0.284
UAAAUUUUUAACAAAGUUUGUACAUUUUUUAUGAAAGUUACUAGUAAUGCUUUACUAAGUAGUGCAAUGAAUUUUUAUUUUUAAUCCCUGUGCCCAAUUUUGGAGUUUGA	0.785
AGAUGUGAAUACAUAUUGUAAGAGCACGUUGAAUAGUGUGCAUUACUGUGGGGAAACACCGAAACUGCUGUUGUUUUUCAUUUCUACUGUAUUUUAGUUGCAGCCUAUUU	0.445
CUUUGUAAAGUGCGCAAGUGCAAUAAUUUAAAGAGGUCUUAUCUUUGCAUUUAUAAAUUAUAAAUAUUGUACAUGUGUGUAAUUUUUCAUGUAUUCAUUUGCAGUCUUUG	0.515
CAGAUUUACAGAGAACUUACACUUCAUCUGUUCCACCUCUCCUGCGAUAGUCCUGGGUGCUCCACUGAUUGGAGGAUAGAGCCAGCUGUCUGACACACAAAUGGUCUUUU	0.352
GGGCUGGUAUUUAUCUGCAAGGUUGAAGUCACUGGGAUUCUUUUCCUUUCACCUAGAUAGUCCUUGGAAAGUGUGUGAGAGAGAAGUGGGCAGGAGACAGACUGGGGACU	0.634

Series 2 — Molecule: B1 (IAA19); method: two-hybrid; direction: higher = firmer interaction
B1: IAA19 (Arabidopsis thaliana, UniProt O24409); chain MEKEGLGLEITELRLGLPGRDVAEKMMKKRAFTEMNMTSSGSNSDQCESGVVSSGGDAEKVNDSPAAKSQVVGWPPVCSYRKKNSCKEASTTKVGLGYVKVSMDGVPYLRKMDLGSSQGYDDLAFALDKLFGFRGIGVALKDGDNCEYVTIYEDKDGDWMLAGDVPWGMFLESCKRLRIMKRSDATGFGLQPRGVDE
partner	notes	relative to	positive tests
ARF2 727-859 (Arabidopsis thaliana, UniProt Q94JM3)	–	out of 4 tests	0
IAA31 (Arabidopsis thaliana, UniProt Q8H174)	–	out of 4 tests	4
ARF17 (Arabidopsis thaliana, UniProt Q84WU6)	weak activation fusion	out of 3 tests	0
IAA32 (Arabidopsis thaliana, UniProt Q8RYC6)	–	out of 4 tests	0
ARF8 699-811 (Arabidopsis thaliana, UniProt Q9FGV1)	–	out of 4 tests	4
IAA27 (Arabidopsis thaliana, UniProt Q9ZSY8)	–	out of 2 tests	1
IAA20 (Arabidopsis thaliana, UniProt O24410)	weak activation fusion	out of 4 tests	1
ARF14 497-605 (Arabidopsis thaliana, UniProt Q9LQE8)	–	out of 4 tests	0

Mixed results
Rel Rel homology region: Proto-oncogene c-Rel, Rel homology region (Rel, Mus musculus, UniProt P15307, residues 1-282)
Sequence of UniProt P15307 (1-282, looked up): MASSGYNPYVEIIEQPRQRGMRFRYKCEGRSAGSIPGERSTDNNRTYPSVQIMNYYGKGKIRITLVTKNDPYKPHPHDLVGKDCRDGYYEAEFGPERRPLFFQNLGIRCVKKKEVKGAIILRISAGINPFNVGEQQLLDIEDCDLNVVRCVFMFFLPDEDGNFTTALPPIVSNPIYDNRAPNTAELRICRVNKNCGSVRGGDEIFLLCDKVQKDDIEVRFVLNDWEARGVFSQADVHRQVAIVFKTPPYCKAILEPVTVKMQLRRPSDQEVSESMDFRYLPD
Molecule	target	assay	system	conditions	scale	measurement	value
GGAAATTCCC	Rel Rel homology region	surface plasmon resonance	double-stranded DNA, one strand shown, in vitro	1 nM to 1 µM, 10-bp κB site, 1:1 kinetic fit, 10 °C	higher = slower dissociation	dissociation half-life	6.12 min
VQKVNPAPK	HLA class I histocompatibility antigen, A alpha chain, allele A*26:03 (Homo sapiens, UniProt P04439)	peptide-MHC binding	peptide	concentration not given	–	binding	inactive
GGGGAATTTT	Rel Rel homology region	surface plasmon resonance	double-stranded DNA, one strand shown, in vitro	1 nM to 1 µM, 10-bp κB site, 1:1 kinetic fit, 10 °C	higher = slower dissociation	dissociation half-life	1.07 min

Some of these lines once more (series 1):
Sequence	RBNS enrichment (R)
GCUGAGGAAUUCUUGUACGCAGUUUCUUUGGCUUCACGAAGCCGAUUAAAAGACCGUGUGAAAUGAAUCUCGCUCUGACCAUUUCCCUUUCAUUGCCGACACUGAGCUGC	0.369
AUAGCUCUCUGCCCUGAUGUGUGGGGGAACUAGGAAGAAGUCCUUUGACCUCACCAGGCCUCAUGCUUCCCUUUAAUGUAAAGGGAAGGGGUUUGCCCACUUUCCUCUUU	0.847
